Measured values from different studies.
Lines come from different studies, so protocols differ. “And” joins repeats or separate records; there may be more than shown. ± gives the spread as reported. In brackets after ≈: the same amount, converted by molar mass.

Structure (SMILES)	organism	test	test system	setting	how to read	measurement	value
CCc1c(Cl)c(O)c(Cl)c(O)c1C(=O)O[C@H]1[C@H](O)[C@H](OC)[C@H](OC/C2=C\C=C\C[C@H](O)/C(C)=C/[C@H](CC)[C@@H](O[C@@H]3OC(C)(C)[C@@H](OC(=O)C(C)C)[C@H](O)[C@@H]3O)/C(C)=C/C(C)=C/C[C@@H]([C@@H](C)O)OC2=O)O[C@@H]1C	Gram-negative bacteria			concentration not given		antibacterial activity	inactive
O=[N+]([O-])c1cc2c(ccc3cc(Br)ccc32)o1	Mycobacterium marinum	REMA	ATCC BAA-535			MIC90	0.25 µg/mL (≈ 0.856 µM)
CCCCc1ccc(CNc2nc(N(C)C)nc(N(C)C)c2/N=N/c2ccc(Cl)cc2)cc1	Plutella xylostella	leaf dipping		200 mg/L, 96 h		mortality	93.3 ± 5.8%
Cc1c2c(nn1C)CSCc1cc(n(C)n1)CSc1cc(c3ccccc3c1)OCCCc1c(C(=O)O)n(C)c3c-2c(Cl)ccc13	Staphylococcus aureus	label-free quantitative proteomics, item: SAOUHSC_02073 protein	SA113	concentration not given	reference: untreated control	log2 fold change	-5.09
CC1(C)SC2C(NC(=O)C(NC(=O)C3=C(O)CNC3=O)c3ccccc3)C(=O)N2C1C(=O)O (stereo not shown)	Escherichia coli	broth microdilution	isolate IU, CTX-M-14, TEM-1	with: clavulanic acid 6 µg/mL		MIC	> 200 µg/mL
Cn1cc(NC(=O)c2cc(NC(=O)CN=C(N)N)cn2C)cc1C(=O)NCCC(=N)N	Bacillus subtilis	bacterial cytological profiling	ATCC 6633			DNA perimeter	6.16 µm and 6.56 µm and 6.63 µm
Nc1ncnc2c1ncn2[C@@H]1O[C@@H]2COP(=O)(O)O[C@H]3[C@@H](O)[C@H](n4cnc5c(=O)[nH]cnc54)O[C@@H]3COP(=O)(O)O[C@H]2[C@H]1O	West Nile virus	RNA sequencing Reactome analysis, item: Amplification of signal from kinetochores (R-HSA-141424)	HFF-1	concentration not given, upregulated pathways, with: West Nile virus infection	reference: WNV-infected without compound	fold enrichment	5.34
N=C(N)NCCC[C@H](NC(=O)[C@@H](N)CCCNC(=N)N)C(=O)N[C@@H](Cc1c[nH]c2ccccc12)C(=O)N[C@@H](Cc1c[nH]c2ccccc12)C(=O)N[C@@H](CCC(N)=O)C(=O)N[C@@H](Cc1ccccc1)C(=O)N[C@@H](CCC(N)=O)C(=O)N[C@@H](Cc1ccccc1)C(=O)N[C@@H](CCCCN)C(N)=O	Bacillus subtilis					MBC	9.7 µM (≈ 13.4 µg/mL)
CS(=O)(=O)CCCn1c(Cn2c(=O)n(CC(F)(F)F)c3ccncc32)cc2cc(Cl)ccc21	respiratory syncytial virus	RT-qPCR	hospitalized infants 1-24 months, nasal swab	oral, 9, 6 or 5 mg/kg daily, day 14, high dose by age cohort	reference: placebo	LS mean difference vs placebo	-1.79 log10 copies/mL
CC[C@H](C)[C@H](NC(=O)[C@H](C)NC(=O)[C@H](CCCCN)NC(=O)[C@H](CC(C)C)NC(=O)[C@H](C)NC(=O)[C@@H](NC(=O)[C@H](Cc1c[nH]cn1)NC(=O)[C@H](CC(C)C)NC(=O)[C@@H](NC(=O)[C@@H](NC(=O)[C@H](CCCCN)NC(=O)[C@H](C)NC(=O)[C@H](C)NC(=O)[C@H](CO)NC(=O)[C@H](CCCCN)NC(=O)[C@H](Cc1ccccc1)NC(=O)[C@@H](NC(=O)[C@H](CCCCN)NC(=O)[C@H](CC(C)C)NC(=O)[C@H](Cc1ccccc1)NC(=O)[C@H](CO)NC(=O)[C@H](CCCCN)NC(=O)[C@H](Cc1c[nH]c2ccccc12)NC(=O)[C@H](CCCCN)NC(C)=O)[C@@H](C)O)[C@@H](C)O)C(C)C)[C@@H](C)O)C(=O)N[C@@H](CO)C(=O)N[C@@H](CO)C(N)=O	Klebsiella pneumoniae		ATCC 1705			MIC50	16 µg/mL (≈ 5.45 µM)
Cn1c(=O)ccc2ccc(F)c(CCNC[C@H]3CN(c4cnc5c(n4)NC(=O)CO5)C(=O)O3)c21	Neisseria gonorrhoeae					MIC50	< 0.015 µg/mL
Cl.N=C(CC(O)c1cc2c(F)cc(F)cc2c2cc(C(F)(F)F)ccc12)Nc1ccc(Br)cc1 (stereo not shown)	Plasmodium berghei	Peters test	ANKA, mice	oral, 4 x 3 mg/kg		mean survival time	14 days
C=C(CN(C(=O)c1c(C(F)F)nn(C)c1F)C1CC1)c1ccc(Cl)cc1Cl	Alternaria alternata			1.56 mg/L		colony diameter	8 mm and 7 mm

Some of these lines once more:
Structure (SMILES)	organism	test	test system	setting	how to read	measurement	value
C=C(CN(C(=O)c1c(C(F)F)nn(C)c1F)C1CC1)c1ccc(Cl)cc1Cl	Alternaria alternata			1.56 mg/L		colony diameter	8 mm and 7 mm
Cn1cc(NC(=O)c2cc(NC(=O)CN=C(N)N)cn2C)cc1C(=O)NCCC(=N)N	Bacillus subtilis	bacterial cytological profiling	ATCC 6633			DNA perimeter	6.16 µm and 6.56 µm and 6.63 µm
